# Measured values collected from several papers.
# Every numbered part comes from another study and shows a few of its results, in no order. Positions count from the first letter of the parent shown.

# Sample 1
# Target: Histone acetyltransferase KAT6A, winged helix 1, GST fusion (KAT6A, Homo sapiens, UniProt Q92794, residues 1-85)
# Technique: protein binding microarray
# Form: double-stranded DNA, one strand shown
# Sample: in vitro
# Concentration: not given
# Setting: 8-mer, flanks averaged, mean of 2 arrays, mostly near background
# Baseline: not given
# Reading: higher = stronger binding
# Residues (chain): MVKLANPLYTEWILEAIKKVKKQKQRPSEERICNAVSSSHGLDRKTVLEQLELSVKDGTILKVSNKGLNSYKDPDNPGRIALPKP
Sequence,E-score
ACATGCTG,-0.181
AACTTGAA,-0.142
ACGTGAAC,-0.0765
TCCTGCCA,-0.169
AATAACAC,0.0692
ATTGCGCG,0.439
AGTGTGAT,-0.133
AAATGTGC,0.0675

# Sample 2
# Target: CCNB2, cyclin fold, Cln2 fusion (human)
# Technique: yeast growth competition, sequencing
# Sample: yeast
# Setting: strong parent motif
# Baseline: not given
# Reading: higher = stronger binding
# Starting sequence: viral docking peptide; TSVRRALFTGGSD; partner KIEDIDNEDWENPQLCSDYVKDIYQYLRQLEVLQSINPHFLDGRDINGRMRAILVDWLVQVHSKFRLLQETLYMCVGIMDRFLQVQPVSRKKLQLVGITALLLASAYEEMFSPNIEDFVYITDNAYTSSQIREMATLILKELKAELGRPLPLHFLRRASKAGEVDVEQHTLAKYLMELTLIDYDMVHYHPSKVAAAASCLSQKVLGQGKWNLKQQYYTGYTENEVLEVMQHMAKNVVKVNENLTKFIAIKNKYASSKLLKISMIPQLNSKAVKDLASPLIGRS
Variant,normalised enrichment score
TSVRRALFMGGSD [T9M],0.746
TSVRRATFTGGSD [L7T],0.0913
TSVRRALFTGGAD [S12A],0.659
TSVRRALFTTGSD [G10T],0.633
TSVRRACFTGGSD [L7C],0.165
TSVRRALFEGGSD [T9E],0.717
TSVRRALFTGGWD [S12W],0.805
TSVRRANFTGGSD [L7N],0.399
TSVRRALFTAGSD [G10A],0.829
TSVARALFTGGSD [R4A],0.296
TSVRRALFTSGSD [G10S],1.07
TSVRRPLFTGGSD [A6P],-0.377
TSVRRALFTGGYD [S12Y],0.946
TSVRRALFTMGSD [G10M],0.276

# Sample 3
# Target: Transcription factor SOX-2, HMG box (SOX2, Homo sapiens, UniProt P48431, residues 19-118)
# UniProt P48431, sequence (19-118, looked up): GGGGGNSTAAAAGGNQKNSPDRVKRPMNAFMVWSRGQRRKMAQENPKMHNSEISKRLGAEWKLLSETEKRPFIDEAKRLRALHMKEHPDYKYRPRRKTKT
# Technique: protein-binding microarray
# Form: double-stranded DNA, one strand shown
# Sample: in vitro
# Concentration: not given
# Setting: k-mer, scored over probes, only values ≥0.25
# Reading: higher = stronger binding
Sequence,E-score
AATGTTA,0.304
AAAAGGC,0.33
AATTCAT,0.458
TAAATTA,0.339
GAATAAA,0.35
GCATTCA,0.372
TACAATA,0.423
ATTGTAA,0.421

# Sample 4
# Target: HLA class I histocompatibility antigen, A alpha chain, allele A*80:01 (Homo sapiens, UniProt P04439)
# Observed: peptide-MHC binding
# Form: peptide
# Concentration: concentration not given
Sequence,binding
VTSSVSSGY,inactive
YVAGITLTH,inactive
EAYCALLCK,inactive
RVGIYFGMK,inactive
RTFSILNRK,inactive

# Excerpt of the above (sample 1):
Sequence,E-score
AACTTGAA,-0.142
ACGTGAAC,-0.0765
TCCTGCCA,-0.169
AATAACAC,0.0692
ATTGCGCG,0.439
AGTGTGAT,-0.133
